# Assay results collected from several papers.
# A part holds a random share of what one study measured. Positions count from the first letter of the parent shown.
# Chain of UniProt P08588 (whole entry, looked up): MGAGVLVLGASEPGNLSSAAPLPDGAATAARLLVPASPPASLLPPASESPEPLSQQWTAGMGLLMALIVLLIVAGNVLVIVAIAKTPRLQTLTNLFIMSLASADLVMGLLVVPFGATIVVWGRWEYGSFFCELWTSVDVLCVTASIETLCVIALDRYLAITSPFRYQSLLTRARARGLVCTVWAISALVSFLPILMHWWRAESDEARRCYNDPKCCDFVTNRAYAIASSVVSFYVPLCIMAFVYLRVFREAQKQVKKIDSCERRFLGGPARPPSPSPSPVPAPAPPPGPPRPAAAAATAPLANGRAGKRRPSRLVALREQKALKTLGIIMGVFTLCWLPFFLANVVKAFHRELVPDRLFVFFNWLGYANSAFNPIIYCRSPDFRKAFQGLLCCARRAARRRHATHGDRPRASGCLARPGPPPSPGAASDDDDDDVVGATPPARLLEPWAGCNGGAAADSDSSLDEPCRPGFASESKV
# Chain of UniProt Q9UQM7 (whole entry, looked up): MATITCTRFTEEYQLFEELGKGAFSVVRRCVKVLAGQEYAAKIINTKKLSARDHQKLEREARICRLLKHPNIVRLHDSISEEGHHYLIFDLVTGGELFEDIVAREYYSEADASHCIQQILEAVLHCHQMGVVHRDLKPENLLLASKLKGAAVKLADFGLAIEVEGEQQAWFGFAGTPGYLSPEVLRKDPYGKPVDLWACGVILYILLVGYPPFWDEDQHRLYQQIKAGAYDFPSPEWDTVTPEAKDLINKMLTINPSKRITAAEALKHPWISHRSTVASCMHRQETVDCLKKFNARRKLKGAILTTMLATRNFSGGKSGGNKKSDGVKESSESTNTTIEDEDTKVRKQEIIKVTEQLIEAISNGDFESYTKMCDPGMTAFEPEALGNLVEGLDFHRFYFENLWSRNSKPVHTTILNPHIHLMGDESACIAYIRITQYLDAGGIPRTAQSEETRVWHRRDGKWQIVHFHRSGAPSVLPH

# Set 1
# Target: Mu-type opioid receptor (OPRM1, Homo sapiens, UniProt P35372)
# Chain of UniProt P35372 (whole entry, looked up): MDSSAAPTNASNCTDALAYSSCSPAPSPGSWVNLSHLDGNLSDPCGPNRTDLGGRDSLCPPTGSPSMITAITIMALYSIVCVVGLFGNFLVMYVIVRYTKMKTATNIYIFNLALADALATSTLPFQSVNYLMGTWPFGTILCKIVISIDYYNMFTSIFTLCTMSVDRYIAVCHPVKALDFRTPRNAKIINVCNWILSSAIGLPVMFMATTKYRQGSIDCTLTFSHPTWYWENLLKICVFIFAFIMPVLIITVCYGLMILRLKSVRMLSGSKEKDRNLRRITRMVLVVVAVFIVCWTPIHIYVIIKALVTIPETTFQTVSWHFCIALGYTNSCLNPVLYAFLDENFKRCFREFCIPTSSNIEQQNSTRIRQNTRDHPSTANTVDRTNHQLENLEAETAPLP
# Observed: ligand displacement
# Tested at: 10 µM
SMILES,inhibition [%]
CCc1ccccc1C(=O)Nc1n[nH]c2c(C)c(F)c(C3C(C#N)=C(C)N(C)C(C)=C3C#N)cc12,30.5
Cc1noc([C@H]2C[C@@H](c3ccc(C(F)(F)F)cc3)CN(C(=O)N3CCS(=O)(=O)C3)C2)n1,2.23
O=S(=O)(NC1CCC(c2cc(F)ccc2F)(S(=O)(=O)c2ccc(Cl)cc2)CC1)C(F)(F)F (stereo not drawn),20
COc1cc(-c2cn(C3CCc4c(F)cccc4N(CC(F)(F)F)C3=O)nn2)ccc1-n1cnc(C)c1 (stereo not drawn),30.2
c1ccc(C2CCN(c3cnc4c(N5CCOCC5)nccn34)CC2)cc1,19.6
c1ccc(N2CCN(Cc3nc4ccccc4[nH]3)CC2)nc1,13.2
O=C1NC(c2ccccn2)Sc2ccccc21 (stereo not drawn),6.47
O=C(NCCCC1CCCCC1)c1ccc(CNC(=O)c2cnn(-c3ccccc3)c2C(F)(F)F)cc1,19.4
NC(=O)c1ccc2nc(-c3ccc(C4(N)CCC4)cc3)c(-c3ccccc3)n2n1,31.1
CN1CCN(c2ccnc(NCCc3ccccc3)n2)CC1,25.9
Nc1nc(NCc2ccccc2)nc(-c2cccc(CO)c2)n1,43.6
CC1CCN(c2ccnc(NCc3cn(C)cn3)n2)CC1,10.8
COCCOc1nc(-c2ccc(Cl)nc2)nc2c1CN(C(=O)c1ncn3ccccc13)CC2,-0.32
Cc1ccc(-c2cnc([C@@]3(O)CC[C@H](C(=O)O)C(C)(C)C3)s2)cc1Nc1cccc(C(F)(F)F)n1,8.33
C[C@@H]1CN(c2cc(-c3n[nH]c4ccc(OC5(C)CC5)cc34)ncn2)C[C@H](C)O1,-12.3
CN([C@@H]1CCc2c(CC(=O)O)c3ccccc3n2C1)S(=O)(=O)c1ccc(F)cc1,1.33
C[C@H](c1ccnc(Nc2nc3ccc(-c4cc(N(C)C)ncn4)cc3[nH]2)c1)N1CCN(C(=O)CC(F)(F)F)CC1,26
CN(C)C(=O)c1sc2nc(N3CCC(S(C)(=O)=O)CC3)cc(C(F)(F)F)c2c1N,22.4
NS(=O)(=O)c1cc(NC(=O)Cc2ccccc2)ccc1Oc1cccc(Cl)c1,19.3
CN1CCN(C(=O)C(C)(C)c2ccc(C(=O)Nc3cn4cc(-c5cc(C(C)(C)C)cc(C(C)(C)C)c5)ccc4n3)cc2)CC1,55.7
Cc1c(NC(=O)c2cc(C(N)=O)nc3cc(F)ccc23)c(C(F)(F)F)nn1Cc1ccc(C#N)cc1,6.68

# Set 2
# Target: CCNF, cyclin fold, Cln2 fusion (human)
# Method: yeast growth competition, sequencing
# Medium: yeast
# Notes: strong parent motif
# Reference: not given
# Reading: higher = stronger binding
# Parent: viral docking peptide; YKVKRRLVFGADD
Change,normalised enrichment score
F9Q,1.11
K4S,8.63
G10H,8.15
L7I,7.8
V3Q,8.38
V3S,8.38
V8Q,9.19
V8W,9.62

# Set 3
# Target: HLA class I histocompatibility antigen, A alpha chain, allele A*80:01 (Homo sapiens, UniProt P04439)
# Observed: peptide-MHC binding
# Form: peptide
# Reading: direction not given
Molecule,z-score of log IC50
FHEFLSSKL,0.38
FSDVSHWWQ,0.38
FSFFMNENF,0.38
GIADFIIFK,0.38
FRYKSRCYV,0.38
FRDEAGAIL,0.38
FHRKKTDAL,0.38
DEFLKVPEW,0.38

# Mixed results
SMILES,tested on,assay,conditions,scale,quantity,value
COc1cc2c3c(c1OC)-c1ccccc1C[C@H]3N(C)CC2,"Calcium/calmodulin-dependent protein kinase type II subunit alpha (CAMK2A, Homo sapiens, UniProt Q9UQM7)","enzyme activity, inhibitor",10 µM,,inhibition,49%
CCC(COC(=O)c1cc(OC)c(OC)c(OC)c1)(c1ccccc1)N(C)C.O=C(O)/C=C\C(=O)O (stereo not drawn),Sarcocystis neurona,parasite growth,"10 µM, second screen",reference: untreated,log2 fold change,0.58
CCP(=O)(O)CCCN,mouse MPNST tumor cells,"high-content immunofluorescence imaging, measured: nuclear SOX9","10 µM, 12 h, mean of 2 replicates","reference: DMSO control, higher = more nuclear SOX9",nuclear SOX9 intensity,102 % of DMSO
COc1ccc2[nH]cc(CCN)c2c1,Sarcocystis neurona,parasite growth,"10 µM, second screen",reference: untreated,log2 fold change,0.41
COc1cc(CCN)ccc1O,"Beta-1 adrenergic receptor (ADRB1, Homo sapiens, UniProt P08588)",antagonist,,,IC50,≥ 100 µM
